Published values pooled from the literature.
Each numbered part is a random draw from the data of one study; scales do not carry over between parts. Substitutions count along the parent as printed.

Set 1
Target: ABI1, truncated, D143A, DHFR fusion (Arabidopsis thaliana, UniProt P49597)
Method: DHFR PCA, dose-response
Matrix: yeast
Setting: Hill fit, not affinity
Together with: (+)-ABA, dose series
Reading: lower = more sensitive
Starting sequence: PYL1, truncated, DHFR fusion (Arabidopsis thaliana, UniProt Q8VZS8); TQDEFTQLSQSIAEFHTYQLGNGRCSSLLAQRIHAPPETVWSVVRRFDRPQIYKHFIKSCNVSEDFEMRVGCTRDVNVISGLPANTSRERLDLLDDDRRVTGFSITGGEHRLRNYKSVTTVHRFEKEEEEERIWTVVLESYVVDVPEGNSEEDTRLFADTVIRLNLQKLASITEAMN
| Change | ABA EC50 [µM] |
| --- | --- |
| W41G | 468 |
| V143G | 1180 |
| R99F | 3.14 |
| K126G | 2.13 |
| N85L | 9.62 |
| H122K | 2070 |
| R99Y | 2.66 |
| Q2Y | 36.9 |

Set 2
Target: UBE2U UBC core domain (UniProt Q5VVX9)
Method: yeast two-hybrid
Matrix: yeast
Setting: mostly zero background
Reference: not given
Reading: higher = stronger interaction
B1: TRIM43 RING domain (UniProt Q96BQ3); chain FSHAFQKELTCVICLNYLVDPVTICCGHSFCRPCLCLSWEEAQSPANCPACREPSPKMDFKT
B2: RNF38 RING domain (UniProt Q9H0F5); chain PNNHQSEQTLCVVCMCDFESRQLLRVLPCNHEFHAKCVDKWLKANRTCPICRADASEVHRDS
B3: RNF111 RING domain (UniProt Q6ZNA4); chain EGTEEDTEEKCTICLSILEEGEDVRRLPCMHLFHQVCVDQWLITNKKCPICRVDIEAQLPSE
B4: VPS41 RING domain (UniProt P49754); chain KGVLVDEENICESCLSPILPSDAAKPFSVVVFHCRHMFHKECLPMPSMNSAAQFCNICSAKNRGPGSAI
B5: TRIM4 RING domain (UniProt Q9C037); chain EAEDIQEELTCPICLDYFQDPVSIECGHNFCRGCLHRNWAPGGGPFPCPECRHPSAPAALRP
B6: RC3H1 RING domain (UniProt Q5TC82); chain QAPQWTDFLSCPICTQTFDETIRKPISLGCGHTVCKMCLNKLHRKACPFDQTTINTDIELL
B7: TRIM24 RING domain (UniProt O15164); chain EAARLNLLDTCAVCHQNIQSRAPKLLPCLHSFCQRCLPAPQRYLMLPAPMLGSAETPPPVPAPGSPVSGSSPFATQVGVIRCPVCSQECAERHII
B8: RNF208 RING domain (UniProt Q9H0X6); chain SSAAAGEPLECPTCGHSYNVTQRRPRVLSCLHSVCEQCLQILYESCPKYKFISCPTCRRETVLFTDYG
Target sequence (chain): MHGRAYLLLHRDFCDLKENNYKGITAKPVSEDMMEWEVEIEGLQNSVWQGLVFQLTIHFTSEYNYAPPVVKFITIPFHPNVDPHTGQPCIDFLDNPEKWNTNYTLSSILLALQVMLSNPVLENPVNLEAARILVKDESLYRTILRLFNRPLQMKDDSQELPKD
| Molecule | lacZ reporter activity |
| --- | --- |
| B1 (TRIM43 RING domain) | 0 |
| B2 (RNF38 RING domain) | 0 |
| B3 (RNF111 RING domain) | 0 |
| B4 (VPS41 RING domain) | 9440 |
| MPIRALCTICSDFFDHSRDVAAIHCGHTFHLQCLIQWFETAPSRTCPQCRIQVGKRTIIN (TRAIP RING domain (UniProt Q9BWF2)) | 15100 |
| GAAPGPEAAECLVCSELALLVLFSPCQHRTVCEECARRMKKCIRCQVVVSKKLRPD (MIB2 RING domain (UniProt Q96AX9)) | 14800 |
| B5 (TRIM4 RING domain) | 0 |
| VEPSEENSKDCVVCQNGTVNWVLLPCRHTCLCDGCVKYFQQCPMCRQFVQESFALC (CGRRF1 RING domain (UniProt Q99675)) | 16800 |
| B6 (RC3H1 RING domain) | 0 |
| B7 (TRIM24 RING domain) | 16900 |
| DHGAVGQEMCCPICCSEYVKGEVATELPCHHYFHKPCVSIWLQKSGTCPVCRCMFPPPL (PJA1 RING domain (UniProt Q8NG27)) | 13300 |
| B8 (RNF208 RING domain) | 0 |

Set 3
Target: Ras GTPase-activating protein-binding protein 1, C-terminal RGG region (G3BP1, Homo sapiens, UniProt Q13283)
Chain of UniProt Q13283 (whole entry, looked up): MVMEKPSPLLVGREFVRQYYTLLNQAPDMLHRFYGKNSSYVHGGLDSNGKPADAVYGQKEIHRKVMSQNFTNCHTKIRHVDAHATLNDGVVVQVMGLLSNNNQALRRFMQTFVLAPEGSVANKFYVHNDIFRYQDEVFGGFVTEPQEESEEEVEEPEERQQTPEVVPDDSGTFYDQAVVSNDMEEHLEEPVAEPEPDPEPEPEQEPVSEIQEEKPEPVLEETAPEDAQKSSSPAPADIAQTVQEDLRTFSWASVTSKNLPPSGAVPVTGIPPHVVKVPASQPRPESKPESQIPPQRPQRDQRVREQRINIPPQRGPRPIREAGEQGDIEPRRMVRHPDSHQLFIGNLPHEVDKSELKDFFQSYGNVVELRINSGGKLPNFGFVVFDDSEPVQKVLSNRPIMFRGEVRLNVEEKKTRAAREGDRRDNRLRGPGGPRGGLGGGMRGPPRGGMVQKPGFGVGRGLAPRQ
Method: RNA Bind-n-Seq
Molecule type: RNA
Matrix: in vitro
Tested at: 1 µM
Setting: whole 134-nt RNA, ends assumed
Together with: 150 mM KCl
Reference: input library
Reading: higher = stronger binding
| Strand | log2 enrichment |
| --- | --- |
| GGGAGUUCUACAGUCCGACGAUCUUCCUCAAGUCCUGUGCUACACAUCGUAUGUACCGAAUCGGGCGGCGGCGGAAAGUAUUAUGUUACGCCGUUCGGAUCUGCACUUCCAGCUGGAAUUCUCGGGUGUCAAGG | -0.727 |
| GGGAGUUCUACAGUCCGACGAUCUAAGGCCAGUAAAAUUUUAGUACCUGGAGGUUUGACUCUAAUUUUUGCACUGAUGGUGCCAAAGGGCCCUGAGUCAAAAGGAUAGCCAAGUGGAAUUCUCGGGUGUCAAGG | -2.41 |
| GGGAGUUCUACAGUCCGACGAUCCAAGUCCUGUGCUACACAUCGUAUGUACCGAAUCGGUUUUUGGUGGUUUUUUUGGAAAGUAUUAUGUUACGCCGUUCGGAUCUGCACUUCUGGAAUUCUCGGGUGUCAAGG | -1.55 |
| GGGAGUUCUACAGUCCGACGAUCUCCUCAAGUCCUGUGCUACACAUCGUAUGUACCGAAUCGGGUGGUGGUGGGAAAGUAUUAUGUUACGCCGUUCGGAUCUGCACUUCCAGCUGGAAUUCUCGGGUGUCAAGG | -0.216 |
| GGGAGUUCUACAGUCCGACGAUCCAAGUCCUGUGCUACACAUCGUAUGUACCGAAUCGGGGUUUGGGGUUUGGUUUGGGAAAGUAUUAUGUUACGCCGUUCGGAUCUGCACUUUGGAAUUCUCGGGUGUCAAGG | -0.885 |
| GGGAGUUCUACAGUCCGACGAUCAGUCCUGUGCUACACAUCGUAUGUACCGAAUCGGGAAAAAGGGAAAGGGUUUUUGGGAAAGUAUUAUGUUACGCCGUUCGGAUCUGCACUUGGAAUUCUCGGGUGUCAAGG | 0.527 |
| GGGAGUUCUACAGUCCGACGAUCACCAUGCAGGUUGGCAUCUUUGGGAAGUGGGGCAAGGGGGGGAUAGGGAGGGGGGUAACACUUUGGGAACAGGUGGUCCCAGGUCGUUUCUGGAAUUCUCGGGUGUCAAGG | -1.3 |
| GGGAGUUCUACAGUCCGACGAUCCACAGACAACACGCACCCACUCAGACACAGAGGGAAGGGGUUGGGAUGGGGACAGGGUGCACAGCAGGGCGGGGUAGGACCCCAGCCCCUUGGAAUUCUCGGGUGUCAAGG | -0.246 |
| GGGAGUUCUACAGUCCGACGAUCACCAUGCAGGUGGGCAUCUUUGGGAAGUGGGGCAAGGGGGGGAUAGGGAGGGGGGUAACACUGUGGGAACAGGUGGUCCCAGGUCGUUUCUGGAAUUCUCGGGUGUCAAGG | 3.01 |
| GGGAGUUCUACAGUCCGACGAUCAAGUCCUGUGCUACACAUCGUAUGUACCGAAUCGGAAAAAAAGGUUUUUUUGGAGGAAAGUAUUAUGUUACGCCGUUCGGAUCUGCACUUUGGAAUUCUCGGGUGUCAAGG | -2.27 |

Set 4
Target: Prothrombin, mature alpha-thrombin (F2, Homo sapiens, UniProt P00734)
Method: aptamer microarray, sandwich
Molecule type: DNA with 2'F-ANA
Matrix: in vitro
Tested at: 200 nM
Setting: whole 15-mer aptamer, many near background
Together with: Cy3 exosite-II aptamer, 400 nM
Reading: higher = stronger binding
Strand: GGTTGGTGTGGTTGG
| Modification | mean fluorescence intensity [a.u.] |
| --- | --- |
| 2'F-ANA at 6 15 | 486 |
| 2'F-ANA at 3 4 6 12 14 15 | 355 |
| 2'F-ANA at 1 2 3 5 7 10 12 13 15 | 50.2 |
| 2'F-ANA at 1 3 5 7 9 10 15 | 47.2 |
| 2'F-ANA at 1 2 4 5 7 9 10 11 13 15 | 55.7 |
| 2'F-ANA at 7 8 9 10 11 | 213 |
| 2'F-ANA at 3 4 5 6 7 9 10 11 14 | 47.3 |
| 2'F-ANA at 3 6 7 10 12 15 | 609 |
| 2'F-ANA at 1 2 8 9 11 13 14 15 | 54.3 |
| 2'F-ANA at 1 4 9 10 11 12 | 65.7 |
| 2'F-ANA at 1 2 4 6 11 13 14 | 45.9 |
| 2'F-ANA at 3 4 5 9 10 11 13 14 | 70.6 |
| 2'F-ANA at 1 6 7 14 | 63.6 |
| 2'F-ANA at 6 9 11 13 | 317 |
| 2'F-ANA at 2 3 5 6 8 11 12 | 183 |
| 2'F-ANA at 1 2 4 6 7 8 10 13 | 49.2 |
| 2'F-ANA at 4 5 6 9 10 15 | 46.2 |

Set 5
Target: CCND2, cyclin fold, Cln2 fusion (human)
Method: yeast growth competition, sequencing
Matrix: yeast
Setting: weak parent motif
Reference: not given
Reading: higher = stronger binding
Starting sequence: CDC42EP1 docking peptide (human); SLVVGKLSFDSSP
| Change | normalised enrichment score |
| --- | --- |
| G5A | 0.0315 |
| F9A | -0.0512 |
| P13A | -0.123 |
| S1A | 0.1 |
| S12A | 0.452 |
| L7A | 0.0396 |
| S8A | 0.112 |

Repeated from above (set 4):
| Modification | mean fluorescence intensity [a.u.] |
| --- | --- |
| 2'F-ANA at 1 2 4 6 11 13 14 | 45.9 |
| 2'F-ANA at 3 4 5 9 10 11 13 14 | 70.6 |
| 2'F-ANA at 1 6 7 14 | 63.6 |
| 2'F-ANA at 6 9 11 13 | 317 |
